Assay results gathered from unrelated publications.
Parts stem from different laboratories: compare values within a part only.

Sample 1
Target: Centromere-binding protein 1, full length, His-tagged (CBF1, Saccharomyces cerevisiae, UniProt P17106, residues 1-351)
Sequence of UniProt P17106 (whole entry, looked up): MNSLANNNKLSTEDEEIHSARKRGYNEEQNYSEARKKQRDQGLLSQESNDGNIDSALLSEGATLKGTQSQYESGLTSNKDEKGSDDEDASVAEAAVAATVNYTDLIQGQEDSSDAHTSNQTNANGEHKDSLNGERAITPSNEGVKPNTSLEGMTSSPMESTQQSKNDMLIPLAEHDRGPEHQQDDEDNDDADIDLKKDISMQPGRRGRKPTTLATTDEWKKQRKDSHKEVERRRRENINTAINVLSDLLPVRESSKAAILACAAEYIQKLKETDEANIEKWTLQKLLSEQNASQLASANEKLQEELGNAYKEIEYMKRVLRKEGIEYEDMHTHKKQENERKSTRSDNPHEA
Technique: competition protein-binding microarray
Molecule type: double-stranded DNA, one strand shown
Matrix: in vitro
Concentration: 2 µM
Setting: whole 60-bp probe, lowest competitor level
Added: Pho4 competitor, 0.05 µM
Direction: higher = stronger binding
With `AAAGCGGTAATTTGCCCCGTGGGTGCAGATATCTATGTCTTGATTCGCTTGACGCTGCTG` the fluorescence intensity was 98.3 a.u.
`ACCGGTTGATGTACTAACGTGACGAACAGTTTCATCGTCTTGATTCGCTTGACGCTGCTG` gave a fluorescence intensity of 387 a.u.
`CGGGGTTAAGTTTTTCACGTGTGATGCTTGCAGCAGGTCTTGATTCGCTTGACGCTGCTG` gave a fluorescence intensity of 482 a.u.
`CTTCTGTAAATTTGTCACGTTACTTGACGCGCCCCGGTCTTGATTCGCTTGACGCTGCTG` has a fluorescence intensity of 950 a.u.
For `GTCTTGTCTCATTGCTTTGTGGGTGTCCCCACTTCAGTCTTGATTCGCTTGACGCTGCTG`, the fluorescence intensity was 88.3 a.u.
`TCCTCTCCAATGGACACCGTGACGGAATCAGAAATGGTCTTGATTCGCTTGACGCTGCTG` has a fluorescence intensity of 112 a.u.
`GTCGCAGTGTCGTCGTACGTGATGGGGGCAGGCTTGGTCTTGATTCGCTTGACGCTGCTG` has a fluorescence intensity of 97.2 a.u.
`ACCTCCTCTTCAGTACTAAATCTACCAATACCAAATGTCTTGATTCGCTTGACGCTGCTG` has a fluorescence intensity of 79 a.u.

Sample 2
Target: Replicase polyprotein 1ab, nsp13 helicase (rep, Severe acute respiratory syndrome coronavirus 2, UniProt P0DTD1)
Action: inhibitor
Concentration: 20 µM
The inhibition of O=S(=O)(O)CCS is reported as -0.54%.
CC(C)(N)CC12CC3CC(CC(C3)C1)C2 has an inhibition of 4.53%.
For CC(C)(C)NCC(O)c1ccc(O)cc1Cl (stereo not shown), the inhibition was 2.39%.
COc1cc(F)c(C(C)C)cc1-c1ccc(C(F)(F)F)cc1CN1C(=O)O[C@H](c2cc(C(F)(F)F)cc(C(F)(F)F)c2)[C@@H]1C has an inhibition of 4.05%.
For CC(C)S(=O)(=O)NC[C@H](C)c1ccc(-c2ccc(CCNS(C)(=O)=O)cc2)cc1, the inhibition was 6.66%.
CCCCN1[C@@H]2CC[C@H]1CC(OC(c1ccc(F)cc1)c1ccc(F)cc1)C2 (stereo partly shown) has an inhibition of 3.98%.
CN1CCC(=C2c3ccccc3CC(=O)c3sccc32)CC1 gave an inhibition of 7.79%.
For CCCCCCCCCCCCCCCCCCCCCC(=O)Nc1ccn([C@@H]2O[C@H](CO)[C@@H](O)[C@@H]2O)c(=O)n1, the inhibition was 2.47%.
Cc1c(Cl)cccc1S(=O)(=O)Nc1nc(CC(=O)N2CCN(C)CC2)cs1 gave an inhibition of 3.52%.
For O=C(Nc1ccc2[nH]ccc2c1)c1ccccc1, the inhibition was -0.23%.
CN(C)CCc1c[nH]c2ccc(CS(=O)(=O)N3CCCC3)cc12 has an inhibition of -2.93%.
CCC[C@H](N[C@@H](C)C(=O)N1[C@H](C(=O)O)C[C@@H]2CCCC[C@@H]21)C(=O)O gave an inhibition of 6.88%.
With O=C(COc1ccc(Cl)cc1)N1CCN(Cc2ccc3c(c2)OCO3)CC1 the inhibition was -7.31%.
O=C1c2c(O)cc(O)cc2O[C@H](c2cc(O)c(O)c(O)c2)[C@H]1O gave an inhibition of 1.85%.
With Cc1ccc(Nc2ncc3c(n2)N(C)C(=O)N(c2cc(NC(=O)c4cccc(C(F)(F)F)c4)ccc2C)C3)cn1 the inhibition was -1.44%.
CC(=O)N(O)C/C=C/c1cccc(Oc2ccccc2)c1 has an inhibition of 4.73%.
With CC(=O)N1CCN(C)CC1 the inhibition was -1.59%.
With CC1CNc2c(cccc2S(=O)(=O)N[C@@H](CCCNC(=N)N)C(=O)N2CC[C@@H](C)C[C@@H]2C(=O)O)C1 (stereo partly shown) the inhibition was 3.84%.
CC[C@@H](C)CNCC(=O)N1CCc2sccc2[C@@H]1COc1cccc(C)c1 has an inhibition of -0.02%.
With O=C(O)c1ccc(CN2CCC(CN[C@@H]3C[C@H]3c3ccccc3)CC2)cc1 the inhibition was 6.6%.
For COC(=O)/C=C/C(=O)OC, the inhibition was 11.9%.
With COC1(C[S@@+]([O-])c2ccccc2)CCN(CCc2c[nH]c3ccc(F)cc23)CC1 the inhibition was 5.53%.
The inhibition of CCOC(=O)C1=CCCC[C@H]1S(=O)(=O)Nc1ccc(F)cc1Cl is reported as 9.05%.
With Clc1cccc(-c2nnnn2Cc2cccnc2)c1Cl the inhibition was -0.77%.
With CCCN1CCN(c2ccc(C(=O)NC3(C(=O)NCC#N)CCCCC3)cc2)CC1 the inhibition was 0.42%.

Sample 3
Target: Protein C-ets-1 (ETS1, Homo sapiens, UniProt P14921, residues 1-441, K379A, full length assumed)
Technique: protein-binding microarray
Molecule type: double-stranded DNA, one strand shown
Matrix: in vitro
Concentration: not given
Setting: k-mer, scored over probes, only values ≥0.25
Direction: higher = stronger binding
Residues (chain): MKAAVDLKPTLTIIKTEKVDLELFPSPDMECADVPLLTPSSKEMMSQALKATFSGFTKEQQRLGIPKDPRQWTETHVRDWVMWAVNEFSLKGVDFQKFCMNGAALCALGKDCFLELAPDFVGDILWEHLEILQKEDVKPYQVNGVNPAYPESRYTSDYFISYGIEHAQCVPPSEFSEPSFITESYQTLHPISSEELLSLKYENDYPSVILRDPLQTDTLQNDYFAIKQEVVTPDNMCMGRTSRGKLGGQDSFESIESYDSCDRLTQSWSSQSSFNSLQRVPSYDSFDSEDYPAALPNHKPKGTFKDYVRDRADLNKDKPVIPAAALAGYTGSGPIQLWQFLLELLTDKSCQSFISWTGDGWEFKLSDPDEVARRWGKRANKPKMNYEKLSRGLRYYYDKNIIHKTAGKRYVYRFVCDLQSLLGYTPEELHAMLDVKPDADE
For `AATACCGC`, the E-score was 0.252.
For `GTAATACA`, the E-score was 0.262.
`CCGGCGCC` has an E-score of 0.344.
`CCGGTGAG` has an E-score of 0.27.

Sample 4
Cell line: HEK-293T-ACE2
Concentration: concentration not given
Baseline: vehicle
With O=C([O-])c1ccccc1[O-].[Bi+3].[OH-] the cell number was 100%.
CO[C@H]1C[C@@H]2CC[C@@H](C)[C@@](O)(O2)C(=O)C(=O)N2CCCC[C@H]2C(=O)O[C@H]([C@H](C)C[C@@H]2CC[C@@H](OC(=O)C(C)(CO)CO)[C@H](OC)C2)CC(=O)[C@H](C)/C=C(\C)[C@@H](O)[C@@H](OC)C(=O)[C@H](C)C[C@H](C)/C=C/C=C/C=C/1C has a cell number of 88.4%.
The cell number of Cc1cc(Nc2ncc(Cl)c(Nc3ccccc3S(=O)(=O)C(C)C)n2)c(OC(C)C)cc1C1CCNCC1 is reported as 93.7%.
With CC[C@H]1OC(=O)[C@H](C)[C@@H](O[C@H]2C[C@@](C)(OC)[C@@H](O)[C@H](C)O2)[C@H](C)[C@@H](O[C@@H]2O[C@H](C)C[C@H](N(C)C)[C@H]2O)[C@](C)(O)C[C@@H](C)CN(C)[C@H](C)[C@@H](O)[C@]1(C)O the cell number was 99.4%.

Sample 5
Target: Replicase polyprotein 1ab, main protease (rep, Severe acute respiratory syndrome coronavirus 2, UniProt P0DTD1)
Read-out: enzyme activity
Action: inhibitor
Concentration: 20 µM
With COc1cc(CC2NCCc3cc(O)c(O)cc32)cc(OC)c1OC (stereo not shown) the inhibition was -5.56%.
Sc1nnc(Nc2ccccc2)s1 has an inhibition of 97.3%.
Nc1nnc(Sc2ncc([N+](=O)[O-])s2)s1 has an inhibition of 25.9%.

Sample 6
Target: Interferon regulatory factor 5, full length, phosphomimetic (IRF5, Homo sapiens, UniProt Q13568-2, residues 1-514, S451D/S453D/S456D/S462D)
Technique: protein-binding microarray
Molecule type: double-stranded DNA, one strand shown
Matrix: in vitro
Concentration: 940 nM top
Setting: 60-bp whole probe
Added: salmon DNA 0.4 mg/ml
Baseline: random background probes
Direction: higher = stronger binding
Shared flanks, not repeated: GCCTAGCAC … GTCTTGATTCGCTTGACGCTGCTG
For `TTGCGTCTGGGTGTTTTCTAGTGCTAG`, “fitted relative affinity” read 0.432 z-score.
For `TCAAACCTGGGTCTCTGACTGTGCTAG`, “fitted relative affinity” read -0.71 z-score.
For `GGAGTTTTCAGTCCTGGGATGTGCTAG`, “fitted relative affinity” read 0.191 z-score.
`AAGCCAGGACGAGCTCGCCTGTGCTAG`: “fitted relative affinity” -0.74 z-score.
Under “fitted relative affinity”, `GACGAACTGGGCTTTCGAGACGTGCTA` is recorded as -0.194 z-score.
`TTAGATATCAGTTTCGTTTAGTGCTAG` — result for “fitted relative affinity”: 5.87 z-score.
Under “fitted relative affinity”, `AGAGTGCTCATGCTTCTTAGGGTGCTA` is recorded as -0.568 z-score.
`TTAGCTCTCGGACTGGGTTAGTGCTAG`: “fitted relative affinity” 1.12 z-score.

Some of these lines once more (sample 4):
CO[C@H]1C[C@@H]2CC[C@@H](C)[C@@](O)(O2)C(=O)C(=O)N2CCCC[C@H]2C(=O)O[C@H]([C@H](C)C[C@@H]2CC[C@@H](OC(=O)C(C)(CO)CO)[C@H](OC)C2)CC(=O)[C@H](C)/C=C(\C)[C@@H](O)[C@@H](OC)C(=O)[C@H](C)C[C@H](C)/C=C/C=C/C=C/1C has a cell number of 88.4%.
With CC[C@H]1OC(=O)[C@H](C)[C@@H](O[C@H]2C[C@@](C)(OC)[C@@H](O)[C@H](C)O2)[C@H](C)[C@@H](O[C@@H]2O[C@H](C)C[C@H](N(C)C)[C@H]2O)[C@](C)(O)C[C@@H](C)CN(C)[C@H](C)[C@@H](O)[C@]1(C)O the cell number was 99.4%.
The cell number of Cc1cc(Nc2ncc(Cl)c(Nc3ccccc3S(=O)(=O)C(C)C)n2)c(OC(C)C)cc1C1CCNCC1 is reported as 93.7%.
With O=C([O-])c1ccccc1[O-].[Bi+3].[OH-] the cell number was 100%.
